Published values from different studies.
T1: PSMG3/PSMG4 heterodimer (Homo sapiens); chain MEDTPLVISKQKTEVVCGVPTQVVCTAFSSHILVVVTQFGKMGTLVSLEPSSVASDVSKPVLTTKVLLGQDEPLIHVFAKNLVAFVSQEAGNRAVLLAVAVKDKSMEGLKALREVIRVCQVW; chain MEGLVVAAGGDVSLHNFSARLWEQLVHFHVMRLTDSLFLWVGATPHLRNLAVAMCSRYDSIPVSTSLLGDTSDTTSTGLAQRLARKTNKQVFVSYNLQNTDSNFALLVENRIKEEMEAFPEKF
B1: UPF3B 2-483 (Homo sapiens, UniProt Q9BZI7); sequence looked up; chain KEEKEHRPKEKRVTLLTPAGATGSGGGTSGDSSKGEDKQDRNKEKKEALSKVVIRRLPPTLTKEQLQEHLQPMPEHDYFEFFSNDTSLYPHMYARAYINFKNQEDIILFRDRFDGYVFLDNKGQEYPAIVEFAPFQKAAKKKTKKRDTKVGTIDDDPEYRKFLESYATDNEKMTSTPETLLEEIEAKNRELIAKKTTPLLSFLKNKQRMREEKREERRRREIERKRQREEERRKWKEEEKRKRKDIEKLKKIDRIPERDKLKDEPKIKVHRFLLQAVNQKNLLKKPEKGDEKELDKREKAKKLDKENLSDERASGQSCTLPKRSDSELKDEKPKRPEDESGRDYREREREYERDQERILRERERLKRQEEERRRQKERYEKEKTFKRKEEEMKKEKDTLRDKGKKAESTESIGSSEKTEKKEEVVKRDRIRNKDRPAMQLYQPGARSRNRLCPPDDSTKSGDSAAERKQESGISHRKEGGEE
B2: TFC1 1-649 (Saccharomyces cerevisiae, UniProt P32367); chain MPVEEPLATLSSIPDSSADQAPPLIADEFTLDLPRIPSLELPLNVSTKHSSIQKAIKMCGGIEKVKEAFKEHGPIESQHGLQLYLNDDTDSDGSKSYFNEHPVIGKRVPFRDESVILKVTMPKGTLSKNNNSVKDSIKSLKDSNKLRVTPVSIVDNTIKFREMSDFQIKLDNVPSAREFKSSFGSLEWNNFKSFVNSVPDNDSQPQENIGNLILDRSVKIPSTDFQLPPPPKLSMVGFPLLYKYKANPFAKKKKNGVTEVKGTYIKNYQLFVHDLSDKTVIPSQAHEQVLYDFEVAKKTKVYPGTKSDSKFYESLEECLKILRELFARRPIWVKRHLDGIVPKKIHHTMKIALALISYRFTMGPWRNTYIKFGIDPRSSVEYAQYQTEYFKIERKLLSSPIVKKNVPKPPPLVFESDTPGGIDSRFKFDGKRIPWYLMLQIDLLIGEPNIAEVFHNVEYLDKANELTGWFKELDLVKIRRIVKYELGCMVQGNYEYNKYKLKYFKTMLFVKESMVPENKNSEEGMGVNTNKDADGDINMDAGSQMSSNAIEEDKGIAAGDDFDDNGAITEEPDDAALENEEMDTDQNLKVPASIDDDVDDVDADEEEQESFDVKTASFQDIINKIAKLDPKTAETMKSELKGFVDEVDL
B3: PSMA5 (Homo sapiens, UniProt P28066); chain MFLTRSEYDRGVNTFSPEGRLFQVEYAIEAIKLGSTAIGIQTSEGVCLAVEKRITSPLMEPSSIEKIVEIDAHIGCAMSGLIADAKTLIDKARVETQNHWFTYNETMTVESVTQAVSNLALQFGEEDADPGAMSRPFGVALLFGGVDEKGPQLFHMDPSGTFVQCDARAIGSASEGAQSSLQEVYHKSMTLKEAIKSSLIILKQVMEEKLNATNIELATVQPGQNFHMFTKEELEEVIKDI
B4: MEC3 (Saccharomyces cerevisiae, UniProt Q02574); sequence looked up; chain MKLKLIVNGCEAPDDYKLLRTTINTVASLRKTAILRFNSERLTIISTPKSSLNSSNNGTILRGDTGQLWCTIPHDVFRLYTVISARELNTITMECNCDSLLSVFKRYDRVMNQGSSSNMTIKLQSMPEWNTNNGTLSGGTAGGVDTTSKPNPICALGITFEEIVHTSGPNDAIVMNGGVDEHNGLPTTVGTGNLLASNKVIMHSFKVPVKLLFRAQDTRIQEPMINYIQLMMYKLPPISGEFGSAFHGFIRRVERYSNVNHIHLMGVKKKEHGNEGDDVELKIIVNELDWHLEICWNGPLDSVIQRQEGLTDNPSQNQHIDTDGRQEEGSLPIIEADKPMSSLYTNTRDREMEENIRYDEDLLRIEDSSIADTRGNIYTADTSGDTEFNDISVMVEKAEQESSSTHEVIIRCKDWKVCSKLYAAFEEVVLAISHDESCVFHCSLDRGSLEDSEDVEKPRERGQIIYYIARSKGL
B5: FAM126B 1-308 (Homo sapiens, UniProt Q8IXS8); chain MLGTDRCVVEEWLSEFKALPDTQITSYAATLHRKKTLVPALYKVIQDSNNELLEPVCHQLFELYRSSEVRLKRFTLQFLPELMWVYLRLTVSRDRQSNGCIEALLLGIYNLEIADKDGNNKVLSFTIPSLSKPSIYHEPSTIGSMALTEGALCQHDLIRVVYSDLHPQRETFTAQNRFEVLSFLMLCYNSAIVYMPASSYQSLCRMGSRVCVSGFPRQHEKHWKELCGRIVLDPEFMVQLLTGVYYAMYNGQWDLGQEVLDDIIYRAQLELFSQPLLVANAMKNSLPFDAPDSTQEGQKVLKVEVTPT
B6: ND4L 1-89 (Yarrowia lipolytica, UniProt Q9B6D4); sequence looked up; chain MFIGTIILVLSFLGFVFNRRNIILAFICLETMLLGINLILLRNSVLFDDISGSLFAIVIIILAGVESAIGLSLLVSYYRLRGVINSYGI
B7: ELM1 421-640 (Saccharomyces cerevisiae, UniProt P32801); sequence looked up; chain SSSSVNPVRNEGPVRRFFGRLLTKKGKKKTSGKGKDKVLVSATSKVTPSIHIDEEPDKECFSTTVLRSSPDSSDYCSSLGEEAIQVTDFLDTFCRSNESLPNLTVNNDKQNSDMKTDRSESSSHSSLKIPTPIKAMIRLKSSPKENGNRTHINCSQDKPSSPLMDRTVGKRTVNNSGARKLAHSSNILNFKAYINSEDSDIRETVEDVKTYLNFADNGQI
B8: BAP1 1-240 (Homo sapiens, UniProt Q92560); sequence looked up; chain MNKGWLELESDPGLFTLLVEDFGVKGVQVEEIYDLQSKCQGPVYGFIFLFKWIEERRSRRKVSTLVDDTSVIDDDIVNNMFFAHQLIPNSCATHALLSVLLNCSSVDLGPTLSRMKDFTKGFSPESKGYAIGNAPELAKAHNSHARPEPRHLPEKQNGLSAVRTMEAFHFVSYVPITGRLFELDGLKVYPIDHGPWGEDEEWTDKARRVIMERIGLATAGEPYHDIRFNLMAVVPDRRIK
B9: sufE 1-138 C51A/E107C (Escherichia coli, UniProt P76194); chain MALLPDKEKLLRNFLRCANWEEKYLYIIELGQRLPELRDEDRSPQNSIQGAQSQVWIVMRQNAQGIIELQGDSDAAIVKGLIAVVFILYDQMTPQDIVNFDVRPWFCKMALTQHLTPSRSQGLEAMIRAIRAKAAALS
B10: prohibitin, human; sequence looked up; chain AAKVFESIGKFGLALAVAGGVVNSALYNVDAGHRAVIFDRFRGVQDIVVGEGTHFLIPWVQKPIIFDCRSRPRNVPVITGSKDLQNVNITLRILFRPVASQLPRIFTSIGEDYDERVLPSITTEILKSVVARFDAGELITQRELVSRQVSDDLTERAATFGLILDDVSLTHLTFGKEFTEAVEAKQVAQQEAERARFVVEKAEQQKKAAIISAEGDSKAAELIANSLATAGDGLIELRKLEAAEDIAYQLSRSRNITYLPAGQSVLLQLPQ
B11: SEC61B/FDFT1 /378-end 2-59 L401C/S39C (Homo sapiens); chain PGPTPSGTNVGSSGRSPSKAVAARAAGSTVRQRKNASSGTRSAGRTTSAGTGGMWRFYSRSHYSPIYLSFVMLLAALSWQYCTTLSQVTEDYVQTGEH
B12: CNOT3 607-748 (Homo sapiens, UniProt O75175); sequence looked up; chain LTKEQLYQQAMEEAAWHHMPHPSDSERIRQYLPRNPCPTPPYHHQMPPPHSDTVEFYQRLSTETLFFIFYYLEGTKAQYLAAKALKKQSWRFHTKYMMWFQRHEEPKTITDEFEQGTYIYFDYEKWGQRKKEGFTFEYRYLE

`PIP5K1C (Homo sapiens, UniProt O60331-3)`: binding “binds” (STAT1 (Homo sapiens, UniProt P42224); solid-phase binding).
`B1 (UPF3B 2-483)`: binding “binds” (UPF2 (Homo sapiens, UniProt Q9HAU5); pull-down).
`DQLYQPLKDREDDQYSHLQG (CD3G 157-176; phosphotyrosine)` — result for binding: “binds” (SYK (Homo sapiens, UniProt P43405); FIDA; peptide).
Under “log2 fold change”, `human Ku70` is recorded as -2.87 (PP6C (human); co-immunoprecipitation, IP-MS; CYB5R4 knockout cells; concentration not given; baseline: CYB5R4 knockout over parental).
`B2 (TFC1 1-649)`: binding “binds” (TFC3 1-1160 (Saccharomyces cerevisiae, UniProt P34111); cryo-EM).
`YLYQWLGAPVPYPDPLEPRREVCELNPDCDELADHIGFQEAYRRFYGPV (BGLAP mature, uncarboxylated (Homo sapiens))`: binding “binds” (GGCX (Homo sapiens, UniProt P38435-1); cross-linking; peptide).
`VHGAWDEWSPWSLCSSTCGRGFRDRTRTCRPPQFGGNPCEGPEKQTKFCNIALCP (ADGRB1 TSR3 408-462 (Mus musculus, UniProt Q3UHD1-1); O-fucose-glucose/C-mannosyl; sequence looked up)` — result for binding: “binds” (Rtn4r 27-310 (Mus musculus, UniProt Q99PI8); SEC).
Under binding, `ASEFFVDGLDSDERTLEHFKRWLQPDKVAI (CCDC32 121-150 (Mus musculus, UniProt Q8BS39))` is recorded as “binds” (Ap2m1 122-435 (Mus musculus, UniProt P84091); pull-down).
Under binding, `B3 (PSMA5)` is recorded as “binds” (T1, PSMG3/PSMG4 heterodimer (Homo sapiens); cryo-EM).
`B4 (MEC3)` — result for binding: “binds” (DDC1 1-612 (Saccharomyces cerevisiae, UniProt Q08949); cryo-EM).
Under binding, `RQIVDAQAVCTRCKESADFWCFECEQLLCAKCFEAHQWFLKHEARPLAE (PML 120-168 (Homo sapiens, UniProt P29590); sequence looked up)` is recorded as “binds” (UBE2I (Homo sapiens, UniProt P63279); SEC).
Under binding, `secB (Escherichia coli, UniProt P0AG86)` is recorded as “binds” (SecA dimer (UniProt P10408); SEC-MALS).
`KESALRKQDLLLEFDPLLR (TACC3 to 568 550-568 S558D/Y560L/K562E (Homo sapiens, UniProt Q9Y6A5); sequence looked up)`: binding “binds” (CLTC 358-574 (Homo sapiens, UniProt Q00610); peptide array; peptide).
Under binding, `B5 (FAM126B 1-308)` is recorded as “binds” (TTC7B (Homo sapiens, UniProt Q86TV6); SEC).
`B6 (ND4L 1-89)` — result for binding: “binds” (ND3 1-128 (Yarrowia lipolytica, UniProt Q9B6C7); cryo-EM).
`MLARSGE (N-tail peptide residues 1-7 (Thermus thermophilus))` — result for binding: “binds” (dnaK 388-500 (Thermus thermophilus, UniProt Q56235); NMR NOESY; peptide).
For `B7 (ELM1 421-640)`, binding read “binds” (GIN4 K48A (Saccharomyces cerevisiae, UniProt Q12263); pull-down).
`B8 (BAP1 1-240)`: binding “binds” (UFL1 (Homo sapiens, UniProt O94874); pull-down).
For `B9 (sufE 1-138 C51A/E107C)`, binding read “binds” (sufS 1-406 (Escherichia coli, UniProt P77444); crystal structure).
`B10 (prohibitin, human)`: “log2 fold change” 0.36 (CYB5R4 knockout human cells; PP6 interaction, 3xFLAG-PP6C IP-MS; concentration not given; baseline: CYB5R4 KO over parental).
Under binding, `B11` is recorded as “binds” (EMC7 N-terminal ALFA tag M214C (Homo sapiens, UniProt Q9NPA0); cross-linking).
`B12 (CNOT3 607-748)` — result for binding: “binds” (PUM1 589-1186 (Homo sapiens, UniProt Q14671); cross-linking).

Excerpt of the above:
Under “log2 fold change”, `human Ku70` is recorded as -2.87 (PP6C (human); co-immunoprecipitation, IP-MS; CYB5R4 knockout cells; concentration not given; baseline: CYB5R4 knockout over parental).
`B10 (prohibitin, human)`: “log2 fold change” 0.36 (CYB5R4 knockout human cells; PP6 interaction, 3xFLAG-PP6C IP-MS; concentration not given; baseline: CYB5R4 KO over parental).
`PIP5K1C (Homo sapiens, UniProt O60331-3)`: binding “binds” (STAT1 (Homo sapiens, UniProt P42224); solid-phase binding).
